Measured values gathered from unrelated publications.
Parts stem from different laboratories: compare values within a part only.

Set 1 — technique: protein-binding microarray; molecule type: double-stranded DNA, one strand shown; medium: in vitro; concentration: 0.8 µM; notes: whole 60-bp probe, no competitor; reading: higher = stronger binding; all sequences stand within: … GTCTTGATTCGCTTGACGCTGCTG
Target: Centromere-binding protein 1, full length, N-terminal tag (CBF1, Saccharomyces cerevisiae, UniProt P17106, residues 1-351)
Chain of UniProt P17106 (whole entry, looked up): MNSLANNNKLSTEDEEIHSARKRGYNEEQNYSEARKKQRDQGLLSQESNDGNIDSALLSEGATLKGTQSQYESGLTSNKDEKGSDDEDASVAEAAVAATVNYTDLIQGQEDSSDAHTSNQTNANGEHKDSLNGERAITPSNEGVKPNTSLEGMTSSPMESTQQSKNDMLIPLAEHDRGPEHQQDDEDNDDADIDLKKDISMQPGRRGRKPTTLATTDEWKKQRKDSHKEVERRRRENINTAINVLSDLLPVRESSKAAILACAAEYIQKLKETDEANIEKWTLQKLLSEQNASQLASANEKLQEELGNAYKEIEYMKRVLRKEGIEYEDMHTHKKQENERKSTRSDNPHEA
Strand	fluorescence intensity
GAATACAAAAAAAGGCATGTGGGTGAATTACAATAG	661 a.u.
CTAATTCCGCTGGAAATCGTCACCAGCAGCTACTTC	521 a.u.
TGTACGAAGCTATGACACGATATTATAGTAGTTAGG	532 a.u.
CTAGTCAATAGCAAGAGCGTGCGCGAGATCATGTTC	579 a.u.
GAACGCTGGCCGAAGGTGACAATGGCCTTATGATAG	496 a.u.

Set 2 — technique: Spec-seq; molecule type: double-stranded DNA, one strand shown; medium: in vitro; concentration: not given; notes: whole probe, mean of replicates; baseline: not given; reading: lower = stronger binding
Target: POU domain, class 5, transcription factor 1, POU domain (Pou5f1, Mus musculus, UniProt P20263, residues 131-289)
Chain of UniProt P20263 (131-289, looked up): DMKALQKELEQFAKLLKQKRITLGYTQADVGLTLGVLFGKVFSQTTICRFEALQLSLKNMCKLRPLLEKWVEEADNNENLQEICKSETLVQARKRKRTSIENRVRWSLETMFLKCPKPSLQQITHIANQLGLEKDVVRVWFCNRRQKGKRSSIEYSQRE
All sequences stand within: GAGTCGTCTCGTCAGCACAT … CCGTAGAGCACTCAGGTC
Strand	relative binding energy
GTCCAT	0.383 ln ratio
GCGAGC	0.491 ln ratio
ACGTAT	0.297 ln ratio
GGGGAT	0.566 ln ratio
GCTCAG	0.73 ln ratio

Set 3 — technique: RNAcompete; molecule type: RNA; medium: in vitro; concentration: 20 nM; notes: 7-mer, probes averaged, single round; baseline: mean of 7-mers; reading: higher = stronger binding
Target: PABPC1L2, full length, GST fusion (mouse, UniProt A0ABA7IW68)
Residues (chain): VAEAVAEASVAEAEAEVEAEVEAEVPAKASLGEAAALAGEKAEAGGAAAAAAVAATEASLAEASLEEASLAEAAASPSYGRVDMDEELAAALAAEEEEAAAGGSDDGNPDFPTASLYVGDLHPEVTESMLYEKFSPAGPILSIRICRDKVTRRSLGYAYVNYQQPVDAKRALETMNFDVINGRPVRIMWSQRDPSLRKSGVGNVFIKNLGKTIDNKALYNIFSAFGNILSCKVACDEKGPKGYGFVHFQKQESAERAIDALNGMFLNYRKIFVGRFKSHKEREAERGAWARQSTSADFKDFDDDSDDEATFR
Strand	7-mer Z-score
GAUGGUC	-0.0283
AUAUGUC	-0.197
UGACAGC	-0.293
GCAGGUA	0.157
ACUUUGC	-0.421

Other studies, line by line
Molecule	target	test	system	conditions	scale	measurement	value
PhoQ, residues 284 288 289 292 302 303 TYGVAM	PhoP, residues 12 14 15 18 19 GQALL (Escherichia coli, UniProt P23836)	Sort-seq, refers to: YFP reporter	E. coli	PhoQ-PhoP variant library, added: 10 µM Mg2+	baseline: high Mg2+ state, higher = stronger signaling	fold induction	25.9

Repeated from above (set 3):
Strand	7-mer Z-score
AUAUGUC	-0.197
